Published values gathered from unrelated publications.
Organism: Mycobacterium tuberculosis

COC(=O)c1c(NC(=O)c2c(F)c(F)c(F)c(F)c2F)sc2c1CCCCC2 — MIC (MABA; H37Rv): 1.5 µM
NNC(=O)c1ccncc1 — MIC (H37Rv wild type): 0.078 µg/mL
CN1CCN(c2ccc(Nc3nccc(-c4cccc([N+](=O)[O-])c4)n3)cc2C(F)(F)F)CC1 — MIC (H37Ra ATCC 25177; median): 9.9 µg/mL
NC(=S)NN=Cc1ccc(OC(=O)CN2C(=O)CSC2=O)c(Cl)c1 — MIC (Alamar blue; 192): 10.3 µM
Nc1ccc(C(=O)O)c(O)c1 — MIC (H37Rv wild type): 0.039 µg/mL
Cc1cn(C2CCN(Cc3cccc(Oc4ccccc4)n3)CC2)c(=O)[nH]c1=O — MIC (H37Rv): > 250 µg/mL
CC[C@@H](CO)NCCN[C@@H](CC)CO — MIC (H37Rv wild type): 2.5 µg/mL
[H]/N=C(/N)N[C@H]1[C@H](O)[C@@H](O)[C@H](O[C@@H]2O[C@@H](C)[C@](O)(C=O)[C@H]2O[C@@H]2O[C@@H](CO)[C@H](O)[C@@H](O)[C@@H]2NC)[C@@H](N/C(N)=N\[H])[C@@H]1O — MIC (Microplate Alamar Blue; H37Rv; 5 days, 37 °C): 0.5 µg/mL
CC[C@@H](CO)NCCN[C@@H](CC)CO — MIC (Alamar blue; 192): 2.45 µM
Nc1ccc(S(=O)(=O)c2ccc(N)cc2)cc1 — MIC (pabC deletion mutant; concentration not given, 12 days): 0.5 to 1 µM
NC(=S)NN=Cc1ccc(OC(=O)CN2C(=O)CSC2=O)cc1 — MIC (Alamar blue; 192): 2.84 µM
CS(=O)(=O)Nc1ncn(-c2cc(F)c(COc3ccc(OS(=O)(=O)F)cc3)c(F)c2)n1 — MIC (Erdman drug-susceptible lineage 4): 0.063 µM
CCCCCCCCCCC[C@@H](C[C@@H]1OC(=O)[C@H]1CC1CCCCC1)OC(=O)[C@H](CC(C)C)NC=O — MIC (resazurin microtiter; H37Ra): 8.4 µg/mL
CN1CCN(c2ccc(Nc3nccc(-c4ccc5ccccc5c4)n3)cc2C(F)(F)F)CC1 — MIC (H37Rv auxotrophic strain): 6.6 µg/mL
O=[N+]([O-])c1cn2c(n1)OC[C@@H](OCc1ccc(OC(F)(F)F)cc1)C2 — MIC (H37Rv wild type): 0.312 µg/mL
CN1CCN(c2ccc(Nc3nccc(-c4ccccc4)n3)cc2C(F)(F)F)CC1 — MIC (H37Ra ATCC 25177; median): 10.3 µg/mL
CNC(=O)c1c(-c2ccc(O)cc2)oc2ccc(O)c(CN3CCCCC3)c12 — MIC (MABA; H37Rv): 0.05 µM
CN1CCN(c2ccc(Nc3nccc(-c4cccc(Cl)c4)n3)cc2C(F)(F)F)CC1 — MIC (H37Rv auxotrophic strain): 5.6 µg/mL
CCCCCCCCCCCC(CC1OC(=O)C1C1CCCCC1)OC(=O)C(CC(C)C)NC=O (centres unmarked) — MIC (resazurin microtiter; H37Ra): 49 µg/mL
Cc1ccc(NC(=O)c2ccccc2)cc1Nc1nccn1-c1cc(NC2CCCC2)ncn1 — MIC: > 20 µM
Oc1cc(Cl)ccc1Oc1ccc(Cl)cc1Cl — MIC (MTT; H37Rv): 12.5 µg/mL
O=[N+]([O-])c1cn2c(n1)OC[C@@H](OCc1ccc(N3CCCCC3)c(F)c1)C2 — MIC (growth; H37Rv): 0.02 to 0.05 µg/mL
CN1CCN(c2ccc(Nc3nccc(-c4ccc([N+](=O)[O-])cc4)n3)cc2C(F)(F)F)CC1 — MIC (H37Rv auxotroph): 25 µM
CC(C)C[C@H](NC(=O)[C@@H](N)CO)C(=O)N[C@@H](CCC(=O)O)C(=O)N[C@H](C(=O)N[C@H](C(=O)N[C@@H](CCC(=O)O)C(=O)N[C@@H](C)C(=O)N[C@@H](CC(=O)O)C(=O)O)[C@@H](C)O)C(C)C — MIC (H37Rv): > 200 µg/mL
COc1cccc(-c2ccnc(Nc3ccc(N4CCN(C)CC4)c(C(F)(F)F)c3)n2)c1 — MIC (H37Rv auxotrophic strain): 13 µg/mL
CC(C)C[C@H](NC(=O)[C@H](C)NC(=O)[C@H](CCC(=O)O)NC(=O)[C@@H](N)Cc1c[nH]cn1)C(=O)N[C@H](C(=O)N[C@@H](CC(=O)O)C(=O)N1CCC[C@H]1C(=O)N[C@@H](CC(=O)O)C(=O)O)[C@@H](C)O — MIC (H37Rv): > 100 µg/mL
COc1nc2ccc(Br)cc2cc1[C@@H](c1ccccc1)[C@@](O)(CCN(C)C)c1cccc2ccccc12 — MIC (H37Rv wild type): 0.5 µg/mL
[H]/N=C(/N)N[C@H]1[C@H](O)[C@@H](O)[C@H](O[C@@H]2O[C@@H](C)[C@](O)(C=O)[C@H]2O[C@@H]2O[C@@H](CO)[C@H](O)[C@@H](O)[C@@H]2NC)[C@@H](N/C(N)=N\[H])[C@@H]1O — MIC (Alamar blue; 192): 0.43 µM
C[C@H]1COC2(CCN(c3nc(=O)c4cc(C(F)(F)F)cc([N+](=O)[O-])c4s3)CC2)O1 — MIC (H37Rv): < 0.39 µM
NNC(=O)c1ccncc1 — MIC (Alamar blue; 192): 0.228 µM
CN1CCN(c2ccc(Nc3nccc(-c4ccncc4)n3)cc2C(F)(F)F)CC1 — MIC (H37Rv auxotrophic strain): > 50 µg/mL
CCCCCCC#Cc1cncc(-c2nnc(SCc3ccc([N+](=O)[O-])cc3)n2C)c1 — MIC (broth microdilution; H37Rv): 37 µM
Cc1nc2[nH]c(=O)n(O)c(=O)c2s1 — MIC (growth; with: valine, isoleucine and leucine 1 mM): > 30 µM
NNC(=O)c1ccncc1 — MIC (broth microdilution; H37Rv): 0.46 µM
CN1CCN(c2ccc(Nc3nccc(-c4ccnc(Cl)c4)n3)cc2C(F)(F)F)CC1 — MIC (H37Rv auxotrophic strain): 28 µg/mL

For quick reference, copied from above:
CS(=O)(=O)Nc1ncn(-c2cc(F)c(COc3ccc(OS(=O)(=O)F)cc3)c(F)c2)n1 — MIC (Erdman drug-susceptible lineage 4): 0.063 µM
CN1CCN(c2ccc(Nc3nccc(-c4ccccc4)n3)cc2C(F)(F)F)CC1 — MIC (H37Ra ATCC 25177; median): 10.3 µg/mL
Cc1cn(C2CCN(Cc3cccc(Oc4ccccc4)n3)CC2)c(=O)[nH]c1=O — MIC (H37Rv): > 250 µg/mL
Oc1cc(Cl)ccc1Oc1ccc(Cl)cc1Cl — MIC (MTT; H37Rv): 12.5 µg/mL
CN1CCN(c2ccc(Nc3nccc(-c4ccc([N+](=O)[O-])cc4)n3)cc2C(F)(F)F)CC1 — MIC (H37Rv auxotroph): 25 µM
